Results gathered from unrelated publications.
Compare with care: the assays were run in different laboratories.
KIT T670I/V559D: Mast/stem cell growth factor receptor Kit (KIT, Homo sapiens, UniProt P10721, T670I/V559D)
KIT V559D/V654A: Mast/stem cell growth factor receptor Kit (KIT, Homo sapiens, UniProt P10721, V559D/V654A)
KIT: Mast/stem cell growth factor receptor Kit (KIT, Homo sapiens, UniProt P10721)
KIT D816V: Mast/stem cell growth factor receptor Kit (KIT, Homo sapiens, UniProt P10721, D816V)

With CC(=O)N1c2ccc(-c3ccc(CNC(=O)c4cn5cc(-c6cnc(N)nc6)nc(N6CCOCC6)c5n4)cc3)cc2CC[C@@H]1C the remaining binding was 85% (KIT T670I/V559D; KINOMEscan; 10 µM, V559D/T670I mutant).
The remaining binding of Cc1cnc2nc1Nc1cccc(c1)COC/C=C/COCc1cc(ccc1OCCN1CCOCC1)N2 is reported as 69% (Mast/stem cell growth factor receptor Kit (KIT, Homo sapiens, UniProt P10721, D816H); binding; 0.1 µM).
For CC(C)=CC1OC(C)(C)C2C=C3C(=O)C(Cl)=CC(O)C3C3C(O)C4OC4C(=O)C132 (stereo not shown), the remaining binding was 90% (KIT T670I/V559D; cell-free assay, competition with immobilised ligand; 10 µM).
C=CC(=O)N1CCc2ccc(-n3c(=O)ccc4cnc5ccc(-c6cnn(C)c6)cc5c43)cc21 gave a remaining binding of 100% (KIT V559D/V654A; KINOMEscan; 1 µM; baseline: DMSO control).
For CNC1C[S+]2CC[S+]3CC[S+](C1)[Ru-4]321([N]=C=S)[n]2c3ccc(OC)cc3c3c4c(c5cc(F)c[n+]1c5c32)C(=O)NC4=O (stereo not shown), the remaining binding was 86% (KIT T670I/V559D; KinomeScan; 0.1 µM; baseline: untreated).
Cc1cc(-c2n[nH]cc2C(=O)Nc2ccc(C)c(F)c2)ccn1 gave a remaining binding of 20% (KIT; cell-free assay, competition with immobilised ligand; 10 µM).
The remaining binding of CCN1CCN(Cc2ccc(NC(=O)c3ccc(C)c(NC(=O)c4cncc(-c5cccs5)c4)c3)cc2C(F)(F)F)CC1 is reported as 6.8% (KIT V559D/V654A; binding, competition with immobilised ligand; 1 µM).
For CCN1CCN(Cc2ccc(C(=O)Nc3ccc(C)c(NCc4cnc5[nH]ccc5c4OC)c3)cc2C(F)(F)F)CC1, the remaining binding was 22% (KIT D816V; binding, competition with immobilised ligand; 1 µM).
For COC(=O)[C@@]1(C)C=C(C(=O)Nc2cccc(C(=O)Nc3ccc(Nc4nccc(-c5cccnc5)n4)c(C)c3)c2)C(=O)CC1, the remaining binding was 25% (KIT; binding, competition with immobilised ligand; 1 µM).
With CNS(=O)(=O)Nc1nccc(Cc2c(C)c3ccc(Oc4ncccc4F)cc3oc2=O)c1F the remaining binding was 98% (KIT T670I/V559D; binding, competition with immobilised ligand; 10 µM).
With Cc1ccc(-c2c(/C=C(\C#N)C(=O)NC(C)C)n(CCCO)c3ncnc(N)c23)cc1 the remaining binding was 45% (Mast/stem cell growth factor receptor Kit (KIT, Homo sapiens, UniProt P10721, L576P); cell-free assay, competition with immobilised ligand; 1 µM).
With CN1CCN(Cc2ccc(NC(=O)c3cccc(C#Cc4cnc(N)c5ncccc45)c3)cc2C(F)(F)F)CC1 the remaining binding was 24% (KIT D816V; cell-free assay, competition with immobilised ligand; 50 nM).
C=CC(=O)N1CCCC(n2c(=O)c3ncccc3n(Cc3ccc(Oc4ccccc4)cc3)c2=O)C1 (stereo not shown) has a remaining binding of 100% (KIT V559D/V654A; cell-free assay, competition with immobilised ligand; 1 µM).
For COc1c(Cl)cccc1Nc1c(-c2ccncc2C#C[C@@]2(C)CCCN2C(=O)/C=C/CN(C)C)[nH]c2c1C(=O)NCC2, the remaining binding was 99% (KIT; binding, competition with immobilised ligand; 3 µM).
With Nc1ncc2c(n1)-c1c([nH]c3ccc(C4=CCOCC4)cc13)CCC2 the remaining binding was 94% (KIT V559D/V654A; binding, competition with immobilised ligand; 1 µM).
With CNC(=O)C1CCN(c2cc(C)c(F)cc2NC(=O)c2ccc(-c3cc(O)ccc3C)c(C)c2)CC1 the remaining binding was 6.8% (KIT D816V; binding, competition with immobilised ligand; 1 µM).
